Values quoted from earlier work that unrelated publications cite.
Protocols differ between the studies behind these lines. ± marks the error that the study gave. Converted amounts (≈) assume the structure as drawn.

| Substance | assay | system | conditions | how to read | quantity | value |
| --- | --- | --- | --- | --- | --- | --- |
| O=c1n(CCCN2CCN(c3cccc(Cl)c3)CC2)nc2ccccn12 | – | healthy humans | oral, 50 mg (HCl salt), together with: ritonavir 200 mg, 4 doses | – | apparent oral clearance | 75 ± 12 mL/min |
| O=C1c2cccc3c2[C@H](CCC3)CN1[C@@H]1CN2CCC1CC2 | – | healthy volunteers, plasma | oral, 0.75 mg, single dose, given alone | – | half-life | 37.1 h |
| COc1ccnc(C[S+]([O-])c2nc3ccc(OC(F)F)cc3[nH]2)c1OC (stereo not shown) | – | nonobese children, 12–17 years | oral | – | lag time | 1 h |
| COc1cc(CNC(=O)CCCC/C=C/C(C)C)ccc1O | – | plasma | concentration not given | – | Cmax | 0.06 µM |
| CCOC(=O)C1=C[C@@H](OC(CC)CC)[C@H](NC(C)=O)[C@@H](N)C1 | – | human | oral, given as phosphate salt | – | absolute bioavailability | 75 to 80% |
| Cc1ccccc1-c1cc(N2CCN(C)CC2)ncc1N(C)C(=O)C(C)(C)c1cc(C(F)(F)F)cc(C(F)(F)F)c1 | – | healthy volunteers, plasma | oral, dose not given, netupitant-palonosetron alone, rifampicin study | – | CL/F | 19.9 L/h |
| CC[C@H](C)[C@H](NC(=O)[C@H](CCCCN)NC(=O)[C@H](CCCCN)NC(=O)[C@H](Cc1ccccc1)NC(=O)[C@H](CC(C)C)NC(=O)[C@@H](CCCCN)NC(=O)[C@@H](N)CCCCN)C(=O)N[C@@H](CC(C)C)C(=O)N[C@@H](CCCCN)C(=O)N[C@@H](Cc1ccc(O)cc1)C(=O)N[C@@H](CC(C)C)C(N)=O | – | horse erythrocytes 5 % v/v | 150 µM | – | hemolysis | 27 ± 0.7% |
| CC[C@H](C)CCCCC(=O)N[C@@H](CCN)C(=O)N[C@H](C(=O)N[C@@H](CCN)C(=O)N[C@H]1CCNC(=O)[C@H]([C@@H](C)O)NC(=O)[C@H](CCN)NC(=O)[C@H](CCN)NC(=O)[C@H](CC(C)C)NC(=O)[C@@H](Cc2ccccc2)NC(=O)[C@H](CCN)NC1=O)[C@@H](C)O | population PK model | patients, normal renal function | intravenous | – | total clearance | 2.19 L/h |
| CC[C@H]1OC(=O)[C@H](C)[C@@H](O[C@H]2C[C@@](C)(OC)[C@@H](O)[C@H](C)O2)[C@H](C)[C@@H](O[C@@H]2O[C@H](C)C[C@H](N(C)C)[C@H]2O)[C@](C)(O)C[C@@H](C)CN(C)[C@H](C)[C@@H](O)[C@]1(C)O | – | juvenile Chinook salmon, whole body wet weight | concentration not given, field-collected | – | maximum whole-body concentration | 1.7 ng/g |
| COc1cc2c(Oc3ccc4[nH]c(C)cc4c3F)ncnc2cc1OCCCN1CCCC1 | – | human, plasma | oral, 30 mg once daily, multiple doses, geometric mean | – | Css,max | 69.6 ng/mL |
| C[C@](N)(Cc1ccc(O)c(O)c1)C(=O)O | – | plasma | concentration not given | – | Cmax | 11 µM |
| COc1ccc2[nH]c([S+]([O-])Cc3ncc(C)c(OC)c3C)nc2c1 (stereo not shown) | – | plasma | concentration not given | – | unbound Cmax | 0.04 mM |
| NC(=O)N1c2ccccc2C[C@H](O)c2ccccc21 | – | mouse, latrunculin A seizures | po, 100 mg/kg of eslicarbazepine acetate, 60 min | – | plasma concentration | 60.9 µmol/L |
| Nc1cccc2c1C(=O)N(C1CCC(=O)NC1=O)C2=O (stereo not shown) | – | human, plasma | dose not given, based on AUC(0-t) | – | unchanged drug of total radioactivity | ~70% |
| Cc1ccc(C(=O)c2cc(O)c(O)c([N+](=O)[O-])c2)cc1 | rapid equilibrium dialysis | hepatocyte culture medium | – | – | unbound fraction | 0.04 to 0.11 |
| C#Cc1cccc(Nc2ncnc3cc(OCCOC)c(OCCOC)cc23)c1 | – | children | 120 mg/m^2/day, mean of two days | – | clearance | 4 L/h |
| CC(C)C(=O)OCC(=O)[C@@]12O[C@H](C3CCCCC3)O[C@@H]1C[C@H]1[C@@H]3CCC4=CC(=O)C=C[C@]4(C)[C@H]3[C@@H](O)C[C@@]12C | – | adults with asthma | inhaled, HFA-MDI without spacer | – | lung deposition | 53.2% |
| Ac-GAVILRR-NH2 (N-acetyl, C-amide) | dynamic light scattering | peptide, water | – | – | critical aggregation concentration | 3.09 -log M |
| Nc1ncnc2c1ncn2[C@@H]1O[C@@H]2COP(=O)(O)O[C@H]2[C@H]1O | – | methanol/water | – | – | log Kw | 1.09 |

| Substance | assay | system | conditions | how to read | quantity | value |
| --- | --- | --- | --- | --- | --- | --- |
| Nc1ccn([C@@H]2CS[C@H](CO)O2)c(=O)n1 | – | water | hydrate | – | aqueous solubility | 1.93 log mg/mL |
| CO[C@H]1C[C@@H]2CC[C@@H](C)[C@@](O)(O2)C(=O)C(=O)N2CCCC[C@H]2C(=O)O[C@H]([C@H](C)C[C@@H]2CC[C@@H](OCCO)[C@H](OC)C2)CC(=O)[C@H](C)/C=C(\C)[C@@H](O)[C@@H](OC)C(=O)[C@H](C)C[C@H](C)/C=C/C=C/C=C/1C | – | human transplant recipients | 2.5 mg/day, one month co-treatment | relative to: healthy volunteers, literature | rosuvastatin Cmax | ~2.5 fold |
| CN(C)CCCOc1ccc(C(=O)N2c3ccccc3Oc3ccccc32)cc1 | – | rat plasma | – | – | half-life | 0.232 h |
| CC(C)C[C@H](NC(=O)[C@H](Cc1ccccc1)NC(=O)c1cnccn1)B(O)O | – | relapsed or refractory multiple myeloma patients | dose not given, single agent, phase III | – | grade 3/4 neutropenia incidence | 14.5% |
| Nc1nc2ncc(CNc3ccc(C(=O)N[C@@H](CCC(=O)O)C(=O)O)cc3)nc2c(=O)[nH]1 | – | plasma | concentration not given | – | Cmax | 3.4 µM |
| CC(C)c1nc(N(C)S(C)(=O)=O)nc(-c2ccc(F)cc2)c1/C=C/[C@@H](O)C[C@@H](O)CC(=O)O | – | cynomolgus monkey | dose not given, cassette dosing, together with: probenecid | relative to: with over without probenecid | Cmax ratio | 3.5 |
| CN1CCN(c2ccc3nc(-c4c(N)c5c(F)cccc5[nH]c4=O)[nH]c3c2)CC1 | – | human | oral, 500 mg, 5 days on 2 days off, day 1, 24 h | – | AUC(0-t) | 2200 to 8250 ng·h/mL |
| CC[C@H](C)[C@H](N)C(=O)N[C@H](C(=O)NCC(=O)N[C@@H](CC(C)C)C(=O)N[C@@H](CCSC)C(=O)N[C@H](C(=O)NCC(=O)NCC(=O)N[C@H](C(=O)N[C@H](C(=O)N[C@H](C(=O)N[C@@H](C)C(=O)O)[C@@H](C)CC)C(C)C)C(C)C)C(C)C)[C@@H](C)CC | filtration | sodium phosphate buffer | pH 7.4 | – | solubility | 62 ± 17 µM (≈ 70.8 µg/mL) |
| liraglutide | – | human, moderate hepatic impairment, plasma | 100 pM | – | unbound fraction | 0.68% |
| Nc1nc(NC2CC2)c2ncn([C@H]3C=C[C@@H](CO)C3)c2n1 | – | Japanese HIV-infected patients | 600 mg, single dose, fasted, together with: lamivudine 300 mg | – | median Tmax | 1 h |
| O=C(O)CNC(=O)c1ccccc1[131I] | – | normal rat, spleen | 60 min, together with: co-injected 99mTc-1 | – | percent injected dose | 0 %ID |
| CNC(=O)c1cc(Oc2ccc(NC(=O)Nc3ccc(Cl)c(C(F)(F)F)c3)cc2)ccn1 | – | patients | dose not given, all grades | – | patients with neutropenia | 18% |
| CO[C@@H]1[C@@H](OC(N)=O)[C@@H](O)[C@H](Oc2ccc3c(O)c(NC(=O)c4ccc(O)c(CC=C(C)C)c4)c(=O)oc3c2C)OC1(C)C | – | plasma | concentration not given | – | Cmax | 1 µM |
| CN1CCc2nc(C(=O)N[C@@H]3C[C@@H](C(=O)N(C)C)CC[C@@H]3NC(=O)C(=O)Nc3ccc(Cl)cn3)sc2C1 | – | human | share of total clearance | – | non-renal clearance fraction | 50% |
| CC1(C)S[C@@H]2[C@H](NC(=O)[C@H](N)c3ccc(O)cc3)C(=O)N2[C@H]1C(=O)O | – | plasma | concentration not given | – | Cmax | 14.1 µM |
| C=C1CC[C@@H]2[C@](C)(CO)[C@H](O)CC[C@@]2(C)[C@@H]1C/C=C1/C(=O)OC[C@H]1O | – | rat, duodenum | no cyclodextrin | – | effective permeability | 0.000127 cm/s |
| CO[C@H]1C(=O)[C@]2(C)[C@@H](OC)C[C@H]3OC[C@@]3(OC(C)=O)[C@H]2[C@H](OC(=O)c2ccccc2)[C@]2(O)C[C@H](OC(=O)[C@H](O)[C@@H](NC(=O)OC(C)(C)C)c3ccccc3)C(C)=C1C2(C)C | – | several species including human, plasma | dose not given | – | parent share of radioactivity | ≥ 65% |
| CCS(=O)(=O)N1CC(CC#N)(n2cc(-c3ncnc4[nH]ccc34)cn2)C1 | – | healthy humans | concentration not given, together with: probenecid | relative to: without probenecid | renal clearance | 69% |

For quick reference, copied from above:
| Substance | assay | system | conditions | how to read | quantity | value |
| --- | --- | --- | --- | --- | --- | --- |
| O=c1n(CCCN2CCN(c3cccc(Cl)c3)CC2)nc2ccccn12 | – | healthy humans | oral, 50 mg (HCl salt), together with: ritonavir 200 mg, 4 doses | – | apparent oral clearance | 75 ± 12 mL/min |
| O=C1c2cccc3c2[C@H](CCC3)CN1[C@@H]1CN2CCC1CC2 | – | healthy volunteers, plasma | oral, 0.75 mg, single dose, given alone | – | half-life | 37.1 h |
| COc1ccnc(C[S+]([O-])c2nc3ccc(OC(F)F)cc3[nH]2)c1OC (stereo not shown) | – | nonobese children, 12–17 years | oral | – | lag time | 1 h |
